# Published values pooled from the literature.
# Lines come from different studies, so protocols differ. Several values in a cell are separate wells, animals, samples, runs or records. Numbers after ± are the reported error. Where no end group is shown, it is not given here.
# CHRM1: Muscarinic acetylcholine receptor M1 (CHRM1, Homo sapiens, UniProt P11229)
# Sequence of UniProt P11229 (whole entry, looked up): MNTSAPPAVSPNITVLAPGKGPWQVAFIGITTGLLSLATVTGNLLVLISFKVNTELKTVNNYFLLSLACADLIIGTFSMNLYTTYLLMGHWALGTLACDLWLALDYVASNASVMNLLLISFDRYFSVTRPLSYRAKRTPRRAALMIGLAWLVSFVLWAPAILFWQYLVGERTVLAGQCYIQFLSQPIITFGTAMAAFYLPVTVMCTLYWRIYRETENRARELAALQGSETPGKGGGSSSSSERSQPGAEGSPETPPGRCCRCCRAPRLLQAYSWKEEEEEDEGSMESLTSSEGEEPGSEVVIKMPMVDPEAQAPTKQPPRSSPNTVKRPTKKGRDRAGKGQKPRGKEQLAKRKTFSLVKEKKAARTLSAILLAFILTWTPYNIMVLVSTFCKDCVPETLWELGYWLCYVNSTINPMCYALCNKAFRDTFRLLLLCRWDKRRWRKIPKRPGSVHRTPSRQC
# Sequence of UniProt P00760 (whole entry, looked up): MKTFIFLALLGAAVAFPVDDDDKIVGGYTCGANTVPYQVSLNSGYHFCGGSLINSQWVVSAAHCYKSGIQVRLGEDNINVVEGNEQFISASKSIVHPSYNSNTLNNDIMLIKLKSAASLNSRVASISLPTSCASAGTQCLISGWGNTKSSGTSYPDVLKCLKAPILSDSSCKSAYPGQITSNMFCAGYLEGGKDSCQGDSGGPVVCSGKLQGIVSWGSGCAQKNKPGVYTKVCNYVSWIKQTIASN
Molecule,target or system,test,test system,setting,scale,endpoint,result
TDVAHVFLRF-NH2 (C-amide),Drosophila melanogaster,heart rate,adult heart,"40 nL injected, 1 µM, 10 min",relative to: DMS,inhibition,114%
Cc1ccc2cc(-c3ccccc3)[nH]c2c1,RAW264.7,sulforhodamine B,,"50 µM, 20 h",relative to: vehicle,viability,76 ± 4.5%
O=c1cc(-c2ccccc2OCc2ccc(-c3nccs3)cc2)ncn1C1CCCCC1O (stereo not shown),CHRM1,"positive allosteric modulator, IP1 accumulation",CHO-M1 cells,"10 µM, 60 min, 37 °C, added: ACh","relative to: ACh alone, higher = stronger potentiation",ΔpEC50 of ACh,1.62 ± 0.35 log units
CCCCCCCCCCN(C)C,Oncorhynchus mykiss,liver S9 substrate depletion,rainbow trout liver S9,tested individually,,intrinsic clearance in vivo,331 mL/h/g liver
Fc1cc(F)cc(-c2cc3ccccc3[nH]2)c1,RAW264.7,sulforhodamine B,,"50 µM, 20 h",relative to: vehicle,viability,86.5 ± 9.4%
TDADHVFLRF-NH2 (C-amide),Drosophila melanogaster,gut contraction,wandering third instar larval gut,"injection, 1 µM, within 10 min",relative to: DMS effect,inhibition,26%
Cc1cc(C(C#N)c2ccc(Cl)cc2)c(Cl)cc1NC(=O)c1cc(I)cc(I)c1O (stereo not shown),Haemonchus contortus,,multidrug-resistant,"oral, 10 mg/kg, day 6 post-treatment, added: moxidectin 0.2 mg/kg",,faecal egg count reduction,85%
Brc1ccc2[nH]c(-c3ccccc3)cc2c1,RAW264.7,sulforhodamine B,,"50 µM, 20 h",relative to: vehicle,viability,91.8 ± 8.7%
O=C(Cn1cc(COc2ccccc2-c2nc(Cc3ccccc3)no2)nn1)NNC(=S)Nc1ccccc1,A549,"qPCR, measured: mTOR",,"IC50, 24 h",relative to: untreated cancer cells,mRNA level,0.31 ± 0.04 fold
O=c1cc(-c2ccccc2OCc2ccc([N+](=O)[O-])cc2)ncn1C1CCCCC1O (stereo not shown),CHRM1,"positive allosteric modulator, IP1 accumulation",CHO-M1 cells,"1 µM, 60 min, 37 °C, added: ACh","relative to: ACh alone, higher = stronger potentiation",ΔpEC50 of ACh,0.84 ± 0.12 log units
CC(C)[C@H](NC(=O)[C@@H]1CCCN1C(=O)[C@H](CCCNC(=N)N)NC(=O)[C@H](CS)NC(=O)[C@H](Cc1c[nH]c2ccccc12)NC(=O)[C@H](CCCNC(=N)N)NC(=O)[C@@H](Cc1ccccc1)NC(=O)[C@H](Cc1c[nH]cn1)NC(=O)[C@H](CCC(=O)O)NC(=O)[C@H](CS)NC(=O)[C@H](CS)NC(=O)[C@H](CCCCN)NC(=O)[C@@H]1CC(=O)N[C@@H](CCCNC(=N)N)C(=O)N[C@@H](C)C(=O)N[C@@H](CC(=O)O)C(=O)N[C@H](Cc2ccc(O)cc2)C(=O)N1)C(N)=O [technetium-99m labelled],,,"C57 mice, pancreas","intravenous, 0.037 MBq, 0.5 h",,tissue uptake,0.95 ± 0.38 %ID/g
TDVDHVFLAF-NH2 (C-amide),Drosophila melanogaster,heart rate,adult heart,"40 nL injected, 1 µM, 10 min",relative to: DMS,inhibition,103%
CN(C)c1ccc(-c2cc3ccccc3[nH]2)cc1,RAW264.7,sulforhodamine B,,"50 µM, 20 h",relative to: vehicle,viability,60.9 ± 4%
CS(=O)(=O)c1ccc(-c2cnc(N)c(-c3ccc(C(F)(F)F)nc3)c2)cc1,Plasmodium cynomolgi,hypnozoite development,primary rhesus hepatocytes,"day 0, added at 3 h",,IC50,0.061 µM
COc1cccc2c1C(=O)c1c(O)c3c(c(O)c1C2=O)C[C@@](O)(C(=O)CO)C[C@@H]3O[C@H]1C[C@H](N)[C@H](O)[C@H](C)O1,Caco-2,"qPCR, measured: p53",,"IC50, 24 h",relative to: untreated,mRNA level,7.9 ± 0.03 fold
Cc1ccc(NC(=O)c2ccc(CN3CCN(C)CC3)cc2)cc1Nc1nccc(-c2cncc(-c3oncc3C)c2)n1,,,mild-to-moderate Parkinson's disease patients,"oral, 100 mg once daily, pre-dose baseline, on anti-Parkinson medication",direction not given,MDS-UPDRS part II score,8.4 ± 3.9
O=C1c2c(O)cc(O)cc2O[C@H](c2cc(O)c(O)c(O)c2)[C@H]1O,"GABAA receptor, rat","tonic current enhancement, positive allosteric modulator, whole-cell patch clamp","hippocampal neurons, cultured","added: ethanol 60 mM for 30 min, recorded 24 h after exposure",,EC50,~0.2 µM
Polymyxin B,,,human whole blood,"50 ng/mL, 4 h, 37 °C, added: E. coli LPS 0.5 ng/mL",relative to: LPS without compound,IL-6 release,40 ± 18.6%
Nc1nc2c(ncn2[C@@H]2O[C@@H]3COP(=O)(O)O[C@H]3[C@H]2O)c(=O)[nH]1,cone cyclic nucleotide-gated channel,"ion current, agonist, inside-out patch clamp",,"pH 7.5, room temperature, endogenous modulator present, -40 mV, added: Ca2+ 20 µM, Mg2+ 100 µM",,EC50,101 µM and 88.4 µM
TDVDHAFLRF-NH2 (C-amide),Drosophila melanogaster,heart rate,adult heart,"40 nL injected, 1 µM, 10 min",relative to: DMS,inhibition,100%
CC[C@H](C)[C@H](NC(=O)[C@H](CCC(=O)O)NC(=O)[C@H](CO)NC(=O)[C@@H](NC(=O)[C@@H](N)CO)C(C)C)C(=O)N[C@@H](CCC(N)=O)C(=O)N[C@@H](CC(C)C)C(=O)N[C@@H](CCSC)C(=O)N[C@@H](Cc1cnc[nH]1)C(=O)N[C@@H](CC(N)=O)C(=O)N[C@@H](CC(C)C)C(=O)NCC(=O)N[C@@H](CCCCN)C(=O)N[C@@H](Cc1cnc[nH]1)C(=O)N[C@@H](CC(C)C)C(=O)N[C@@H](CC(N)=O)C(=O)N[C@@H](CO)C(=O)N[C@@H](CCSC)C(=O)N[C@@H](CCC(=O)O)C(=O)N[C@@H](CCCN=C(N)N)C(=O)N[C@H](C(=O)N[C@@H](CCC(=O)O)C(=O)N[C@@H](Cc1c[nH]c2ccccc12)C(=O)N[C@@H](CC(C)C)C(=O)N[C@@H](CCCN=C(N)N)C(=O)N[C@@H](CCCCN)C(=O)N[C@@H](CCCCN)C(=O)N[C@@H](CC(C)C)C(=O)N[C@@H](CCC(N)=O)C(=O)N[C@@H](CC(=O)O)C(=O)N[C@H](C(=O)N[C@@H](Cc1cnc[nH]1)C(=O)N[C@@H](CC(N)=O)C(=O)N[C@@H](Cc1ccccc1)C(=O)O)C(C)C)C(C)C,"Serine protease 1 (PRSS1, Bos taurus, UniProt P00760)","substrate, HPLC-UV",Tris buffer,"15 min, pH 6.5, 37 °C, added: bovine trypsin 0.5 mg, no SBTI",,remaining intact compound,0%
NNC(=O)Cn1cc(COc2ccccc2-c2nc(-c3ccccc3)no2)nn1,Caco-2,"qPCR, measured: EGFR",,"IC50, 24 h",relative to: untreated cancer cells,mRNA level,0.35 ± 0.03 fold
CC(C)C[C@H](NC(=O)[C@H](CO)NC(=O)[C@H](CCCNC(=N)N)NC(=O)[C@H](CC(=O)O)NC(=O)[C@H](CCC(=O)O)NC(=O)[C@H](C)NC(=O)[C@@H]1CCCN1C(=O)[C@H](C)NC(=O)[C@H](CCC(=O)O)NC(=O)[C@@H]1CCCN1C(=O)[C@@H]1CCCN1)C(N)=O,,HPLC-EC,"F344 rat, normal, striatum","intranasal, 100 µg, 5 days/week for 3 weeks",,DOPAC level,1260 ± 174 ng/g
Nc1ccc(-c2cc3ccccc3[nH]2)cc1,RAW264.7,"NO release, inhibitor, Griess",,"50 µM, 20 h, LPS-stimulated",,inhibition,86.1%
CO/N=C1\C[C@]2(C[C@@H]3C[C@@H](C/C=C(\C)C[C@@H](C)/C=C/C=C4\CO[C@@H]5[C@H](O)C(C)=C[C@@H](C(=O)O3)[C@]45O)O2)O[C@H](/C(C)=C/C(C)C)[C@H]1C,Haemonchus contortus,,"multidrug resistant, sheep","oral, 0.2 mg/kg, day 2 post-treatment, added: closantel 10 mg/kg",,faecal egg count reduction,96%
c1ccc(Cc2c(-c3ccccc3)n(Cc3ccccc3)c3ccccc23)cc1,RAW264.7,sulforhodamine B,,"50 µM, 20 h",relative to: vehicle,viability,101 ± 6.1%
TDVDHVALRF-NH2 (C-amide),Drosophila melanogaster,heart rate,wandering third instar larval heart,"40 nL injected, 1 µM, 10 min",relative to: DMS,inhibition,27%
Nc1cccc(-c2cc3ccccc3[nH]2)c1,RAW264.7,sulforhodamine B,,"50 µM, 20 h",relative to: vehicle,viability,112 ± 6%
NC(=O)Cn1cc(COc2ccccc2-c2nc(-c3ccccc3)no2)nn1,Caco-2,"qPCR, measured: PI3K",,"IC50, 24 h",relative to: untreated cancer cells,mRNA level,0.45 ± 0.001 fold
COc1ccc(-c2cc3ccccc3[nH]2)cc1,RAW264.7,"NO release, inhibitor, Griess",,"50 µM, 20 h, LPS-stimulated",,inhibition,48.6%
fMLF analogue,rabbit polymorphonuclear leukocytes,,,"2 x 10 to 8 M, 37 °C, 30 min release",,pool filling half-life,4.2 min

# Repeated from above:
Molecule,target or system,test,test system,setting,scale,endpoint,result
O=C(Cn1cc(COc2ccccc2-c2nc(Cc3ccccc3)no2)nn1)NNC(=S)Nc1ccccc1,A549,"qPCR, measured: mTOR",,"IC50, 24 h",relative to: untreated cancer cells,mRNA level,0.31 ± 0.04 fold
O=c1cc(-c2ccccc2OCc2ccc([N+](=O)[O-])cc2)ncn1C1CCCCC1O (stereo not shown),CHRM1,"positive allosteric modulator, IP1 accumulation",CHO-M1 cells,"1 µM, 60 min, 37 °C, added: ACh","relative to: ACh alone, higher = stronger potentiation",ΔpEC50 of ACh,0.84 ± 0.12 log units
CC(C)[C@H](NC(=O)[C@@H]1CCCN1C(=O)[C@H](CCCNC(=N)N)NC(=O)[C@H](CS)NC(=O)[C@H](Cc1c[nH]c2ccccc12)NC(=O)[C@H](CCCNC(=N)N)NC(=O)[C@@H](Cc1ccccc1)NC(=O)[C@H](Cc1c[nH]cn1)NC(=O)[C@H](CCC(=O)O)NC(=O)[C@H](CS)NC(=O)[C@H](CS)NC(=O)[C@H](CCCCN)NC(=O)[C@@H]1CC(=O)N[C@@H](CCCNC(=N)N)C(=O)N[C@@H](C)C(=O)N[C@@H](CC(=O)O)C(=O)N[C@H](Cc2ccc(O)cc2)C(=O)N1)C(N)=O [technetium-99m labelled],,,"C57 mice, pancreas","intravenous, 0.037 MBq, 0.5 h",,tissue uptake,0.95 ± 0.38 %ID/g
TDVDHVFLAF-NH2 (C-amide),Drosophila melanogaster,heart rate,adult heart,"40 nL injected, 1 µM, 10 min",relative to: DMS,inhibition,103%
CN(C)c1ccc(-c2cc3ccccc3[nH]2)cc1,RAW264.7,sulforhodamine B,,"50 µM, 20 h",relative to: vehicle,viability,60.9 ± 4%
